{"sequences": {"note": "Sequences of proteins named here, by UniProt entry; tags and fusion partners are left off. Residues count along the entry.", "UniProt P10275, whole entry": "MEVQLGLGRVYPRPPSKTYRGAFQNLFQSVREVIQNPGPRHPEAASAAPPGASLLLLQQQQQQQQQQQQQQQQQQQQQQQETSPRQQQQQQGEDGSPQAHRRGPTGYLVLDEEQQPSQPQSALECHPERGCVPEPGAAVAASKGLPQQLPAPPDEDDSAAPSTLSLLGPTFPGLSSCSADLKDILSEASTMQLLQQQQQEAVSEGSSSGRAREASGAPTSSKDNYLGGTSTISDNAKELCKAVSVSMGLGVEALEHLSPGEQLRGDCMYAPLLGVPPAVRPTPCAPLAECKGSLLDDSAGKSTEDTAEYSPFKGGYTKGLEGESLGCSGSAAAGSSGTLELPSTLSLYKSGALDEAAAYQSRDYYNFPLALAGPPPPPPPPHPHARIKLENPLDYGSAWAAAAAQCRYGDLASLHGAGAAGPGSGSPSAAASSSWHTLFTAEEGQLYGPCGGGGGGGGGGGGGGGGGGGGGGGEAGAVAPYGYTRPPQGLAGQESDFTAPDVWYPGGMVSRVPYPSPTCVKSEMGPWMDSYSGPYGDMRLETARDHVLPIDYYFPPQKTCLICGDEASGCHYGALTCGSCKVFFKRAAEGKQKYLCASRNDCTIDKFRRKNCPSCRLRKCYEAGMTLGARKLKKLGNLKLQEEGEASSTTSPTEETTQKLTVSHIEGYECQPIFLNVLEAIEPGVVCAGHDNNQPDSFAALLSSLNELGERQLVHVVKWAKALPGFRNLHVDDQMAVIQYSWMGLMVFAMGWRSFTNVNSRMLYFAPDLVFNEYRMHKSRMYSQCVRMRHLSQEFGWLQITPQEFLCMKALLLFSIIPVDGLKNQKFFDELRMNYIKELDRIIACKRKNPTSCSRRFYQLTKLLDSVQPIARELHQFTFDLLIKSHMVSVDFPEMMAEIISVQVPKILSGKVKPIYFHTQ", "UniProt P41145, whole entry": "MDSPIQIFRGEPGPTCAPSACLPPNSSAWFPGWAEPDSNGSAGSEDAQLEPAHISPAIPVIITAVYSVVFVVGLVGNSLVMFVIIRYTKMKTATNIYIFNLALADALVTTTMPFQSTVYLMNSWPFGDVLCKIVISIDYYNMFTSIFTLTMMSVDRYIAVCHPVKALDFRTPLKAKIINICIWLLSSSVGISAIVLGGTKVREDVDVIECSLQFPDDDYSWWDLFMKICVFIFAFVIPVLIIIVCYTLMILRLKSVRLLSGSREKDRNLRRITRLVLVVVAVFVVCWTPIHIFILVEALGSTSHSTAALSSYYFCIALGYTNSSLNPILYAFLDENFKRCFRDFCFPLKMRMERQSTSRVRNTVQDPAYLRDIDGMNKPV", "UniProt P40763, 2-770 limits assumed": "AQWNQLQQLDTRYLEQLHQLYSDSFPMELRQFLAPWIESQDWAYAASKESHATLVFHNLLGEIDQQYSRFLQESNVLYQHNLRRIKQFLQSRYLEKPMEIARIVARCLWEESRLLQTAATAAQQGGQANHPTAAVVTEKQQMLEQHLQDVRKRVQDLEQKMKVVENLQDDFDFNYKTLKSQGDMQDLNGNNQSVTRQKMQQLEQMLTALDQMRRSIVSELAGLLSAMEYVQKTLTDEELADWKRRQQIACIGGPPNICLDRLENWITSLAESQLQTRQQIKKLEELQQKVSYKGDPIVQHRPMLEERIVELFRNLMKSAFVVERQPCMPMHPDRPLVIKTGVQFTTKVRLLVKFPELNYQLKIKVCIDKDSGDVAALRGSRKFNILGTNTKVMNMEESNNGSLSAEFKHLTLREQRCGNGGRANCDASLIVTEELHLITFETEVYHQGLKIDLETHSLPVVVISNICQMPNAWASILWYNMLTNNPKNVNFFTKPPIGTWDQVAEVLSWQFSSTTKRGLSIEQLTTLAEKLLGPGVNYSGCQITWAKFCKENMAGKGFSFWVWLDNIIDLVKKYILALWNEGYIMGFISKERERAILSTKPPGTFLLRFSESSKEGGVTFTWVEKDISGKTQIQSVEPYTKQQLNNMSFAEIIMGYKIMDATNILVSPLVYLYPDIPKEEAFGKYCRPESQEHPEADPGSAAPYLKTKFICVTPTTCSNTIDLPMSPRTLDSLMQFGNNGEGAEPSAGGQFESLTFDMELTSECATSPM", "UniProt Q00961, whole entry, looked up": "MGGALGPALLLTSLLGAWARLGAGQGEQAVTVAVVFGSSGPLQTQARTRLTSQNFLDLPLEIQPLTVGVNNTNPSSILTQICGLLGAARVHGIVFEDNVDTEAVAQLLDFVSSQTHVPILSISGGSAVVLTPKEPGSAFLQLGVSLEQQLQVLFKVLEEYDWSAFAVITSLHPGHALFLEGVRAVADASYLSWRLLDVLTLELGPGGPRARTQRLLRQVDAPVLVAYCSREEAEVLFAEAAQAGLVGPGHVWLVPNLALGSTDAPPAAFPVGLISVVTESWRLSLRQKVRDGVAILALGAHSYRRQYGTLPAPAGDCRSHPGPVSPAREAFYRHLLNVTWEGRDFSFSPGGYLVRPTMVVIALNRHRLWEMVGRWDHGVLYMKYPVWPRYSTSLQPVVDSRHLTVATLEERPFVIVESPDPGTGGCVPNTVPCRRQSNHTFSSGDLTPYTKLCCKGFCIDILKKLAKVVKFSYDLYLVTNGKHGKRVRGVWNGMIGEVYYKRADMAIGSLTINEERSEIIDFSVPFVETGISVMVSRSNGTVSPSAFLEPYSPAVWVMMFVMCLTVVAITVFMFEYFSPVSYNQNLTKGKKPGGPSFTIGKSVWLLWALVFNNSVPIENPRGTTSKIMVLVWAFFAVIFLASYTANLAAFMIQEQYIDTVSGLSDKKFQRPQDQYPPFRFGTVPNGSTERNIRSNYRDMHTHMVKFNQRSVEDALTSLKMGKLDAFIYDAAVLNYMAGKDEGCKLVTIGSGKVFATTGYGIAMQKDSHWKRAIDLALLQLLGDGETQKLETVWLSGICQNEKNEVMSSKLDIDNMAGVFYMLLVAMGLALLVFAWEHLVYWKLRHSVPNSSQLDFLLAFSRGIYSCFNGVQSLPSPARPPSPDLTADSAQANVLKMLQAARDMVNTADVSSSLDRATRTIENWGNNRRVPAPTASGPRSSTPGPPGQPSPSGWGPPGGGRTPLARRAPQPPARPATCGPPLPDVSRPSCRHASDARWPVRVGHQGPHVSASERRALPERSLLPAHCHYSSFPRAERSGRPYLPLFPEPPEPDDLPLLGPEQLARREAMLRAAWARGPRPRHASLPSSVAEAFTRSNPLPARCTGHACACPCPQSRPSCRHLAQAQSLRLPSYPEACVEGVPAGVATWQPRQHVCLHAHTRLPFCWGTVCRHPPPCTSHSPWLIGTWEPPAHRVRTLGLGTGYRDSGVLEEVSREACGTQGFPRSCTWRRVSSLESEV", "UniProt P15056, whole entry K601E": "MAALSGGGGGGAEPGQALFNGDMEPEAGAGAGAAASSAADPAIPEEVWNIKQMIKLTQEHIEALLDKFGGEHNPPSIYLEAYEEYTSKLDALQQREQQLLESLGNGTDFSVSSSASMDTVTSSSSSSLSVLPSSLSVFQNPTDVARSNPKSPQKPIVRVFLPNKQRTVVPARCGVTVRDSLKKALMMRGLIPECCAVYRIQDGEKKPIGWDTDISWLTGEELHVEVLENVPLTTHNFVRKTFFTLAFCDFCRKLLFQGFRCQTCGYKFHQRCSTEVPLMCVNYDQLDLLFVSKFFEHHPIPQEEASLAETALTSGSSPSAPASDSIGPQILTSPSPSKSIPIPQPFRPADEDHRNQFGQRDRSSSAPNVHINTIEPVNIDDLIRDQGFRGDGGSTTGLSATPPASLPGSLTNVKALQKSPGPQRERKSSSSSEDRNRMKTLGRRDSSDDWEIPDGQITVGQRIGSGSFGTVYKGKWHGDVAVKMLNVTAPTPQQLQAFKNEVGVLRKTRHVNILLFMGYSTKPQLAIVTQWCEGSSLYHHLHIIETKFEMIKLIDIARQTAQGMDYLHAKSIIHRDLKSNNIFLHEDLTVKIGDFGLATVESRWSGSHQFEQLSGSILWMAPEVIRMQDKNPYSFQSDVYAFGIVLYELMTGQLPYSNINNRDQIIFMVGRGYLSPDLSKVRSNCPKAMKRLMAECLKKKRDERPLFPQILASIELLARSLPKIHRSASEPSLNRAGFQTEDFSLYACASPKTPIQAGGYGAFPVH", "UniProt P35462, whole entry": "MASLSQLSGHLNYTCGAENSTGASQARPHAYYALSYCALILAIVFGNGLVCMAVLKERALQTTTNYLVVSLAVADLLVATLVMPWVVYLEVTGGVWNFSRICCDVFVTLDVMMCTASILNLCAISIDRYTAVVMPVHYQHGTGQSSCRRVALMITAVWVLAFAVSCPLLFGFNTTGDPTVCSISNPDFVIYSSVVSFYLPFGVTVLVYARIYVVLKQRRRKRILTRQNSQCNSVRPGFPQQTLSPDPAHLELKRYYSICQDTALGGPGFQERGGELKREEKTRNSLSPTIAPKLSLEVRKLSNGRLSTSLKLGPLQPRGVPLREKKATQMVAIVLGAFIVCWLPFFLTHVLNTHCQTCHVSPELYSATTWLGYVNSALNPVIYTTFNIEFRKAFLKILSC", "UniProt Q62645, 28-1323 limits assumed": "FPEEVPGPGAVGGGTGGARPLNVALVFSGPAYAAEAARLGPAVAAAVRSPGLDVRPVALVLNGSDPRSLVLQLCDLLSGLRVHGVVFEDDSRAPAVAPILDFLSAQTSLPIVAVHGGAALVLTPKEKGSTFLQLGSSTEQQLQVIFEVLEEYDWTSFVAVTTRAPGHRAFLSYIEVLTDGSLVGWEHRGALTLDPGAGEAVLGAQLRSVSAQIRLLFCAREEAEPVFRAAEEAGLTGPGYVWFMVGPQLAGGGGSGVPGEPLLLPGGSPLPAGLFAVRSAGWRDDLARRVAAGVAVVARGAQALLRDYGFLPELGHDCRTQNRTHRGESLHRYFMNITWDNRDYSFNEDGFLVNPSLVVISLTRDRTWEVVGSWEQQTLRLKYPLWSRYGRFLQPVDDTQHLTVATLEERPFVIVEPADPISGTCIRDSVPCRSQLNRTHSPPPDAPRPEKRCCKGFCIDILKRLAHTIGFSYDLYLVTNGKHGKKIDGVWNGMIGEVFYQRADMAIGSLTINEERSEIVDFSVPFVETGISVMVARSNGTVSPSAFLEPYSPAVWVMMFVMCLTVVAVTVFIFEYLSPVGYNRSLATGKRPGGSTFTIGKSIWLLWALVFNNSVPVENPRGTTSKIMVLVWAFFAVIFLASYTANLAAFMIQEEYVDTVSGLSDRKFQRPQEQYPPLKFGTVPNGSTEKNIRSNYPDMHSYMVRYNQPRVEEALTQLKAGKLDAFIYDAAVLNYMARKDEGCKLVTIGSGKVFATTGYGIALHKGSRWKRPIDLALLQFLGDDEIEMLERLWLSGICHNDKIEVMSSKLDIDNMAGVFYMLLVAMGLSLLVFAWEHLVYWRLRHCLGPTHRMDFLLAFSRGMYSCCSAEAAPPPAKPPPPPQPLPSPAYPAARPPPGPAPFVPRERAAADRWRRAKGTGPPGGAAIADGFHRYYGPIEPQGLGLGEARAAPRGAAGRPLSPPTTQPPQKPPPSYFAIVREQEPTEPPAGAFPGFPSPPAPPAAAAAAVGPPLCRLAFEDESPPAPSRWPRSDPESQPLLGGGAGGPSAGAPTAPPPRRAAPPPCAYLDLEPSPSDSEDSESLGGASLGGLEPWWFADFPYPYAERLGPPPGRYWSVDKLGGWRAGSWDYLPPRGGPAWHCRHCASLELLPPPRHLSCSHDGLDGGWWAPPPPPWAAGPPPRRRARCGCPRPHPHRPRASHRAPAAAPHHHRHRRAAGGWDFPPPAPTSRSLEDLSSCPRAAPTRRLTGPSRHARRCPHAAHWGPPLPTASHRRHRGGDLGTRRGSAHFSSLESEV", "UniProt Q99436, whole entry, looked up": "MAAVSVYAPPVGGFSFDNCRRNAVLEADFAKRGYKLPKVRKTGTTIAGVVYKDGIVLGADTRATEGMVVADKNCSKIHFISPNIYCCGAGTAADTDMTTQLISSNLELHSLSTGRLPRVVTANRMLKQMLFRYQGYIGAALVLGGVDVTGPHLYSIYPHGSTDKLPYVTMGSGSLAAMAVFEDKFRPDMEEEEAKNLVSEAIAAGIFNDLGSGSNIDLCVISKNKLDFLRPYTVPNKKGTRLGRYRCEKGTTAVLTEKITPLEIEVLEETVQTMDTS"}, "data": "Published values from different studies", "note": "Lines come from different studies, so protocols differ. Numbers after ± are the reported error."}
{"SMILES": "CSc1nc(Cl)cc(Sc2nnc(-c3cc(C(F)(F)F)cc(C(F)(F)F)c3)[nH]2)n1", "tested on": "Klebsiella spp.", "measurement": "MIC", "value": "> 590 µg/mL"}
{"SMILES": "C[C@]12CCC(=O)C=C1CCC1C2CC[C@]2(C)C(n3cnc4ccccc43)=CCC12 (stereo partly drawn)", "tested on": "Androgen receptor (AR, Homo sapiens, UniProt P10275)", "assay": "reporter gene, antagonist", "system": "LAPC4", "setting": "10 µM, 18 h, with: DHT 10 nM", "measurement": "inhibition", "value": "90 to 99%"}
{"SMILES": "CN(C(=O)Cc1ccc(Cl)c(Cl)c1)[C@H](CN1CCCC1)c1ccccc1", "tested on": "Kappa-type opioid receptor (OPRK1, Homo sapiens, UniProt P41145)", "assay": "agonist", "setting": "human receptor", "scale": "baseline: larger over smaller RAi, vs dynorphin A", "measurement": "bias factor", "value": 5.7}
{"SMILES": "Cc1ccc(S(=O)(=O)N(C)CC(=O)N(Cc2ccc(C3CCCCC3)cc2)c2ccc(C(=O)O)c(O)c2)cc1", "tested on": "Signal transducer and activator of transcription 3 (STAT3, Homo sapiens, UniProt P40763)", "assay": "co-immunoprecipitation", "system": "PANC-1 and MDA-MB-231", "setting": "concentration not given", "measurement": "EGFR association", "value": "decreased"}
{"SMILES": "Cc1ccc(S(=O)(=O)Nc2ccccc2N2CCCCC2)s1", "tested on": "Acetylcholinesterase (ACHE, Homo sapiens, UniProt P22303)", "assay": "enzyme activity, inhibitor", "measurement": "IC50", "value": "inactive"}
{"SMILES": "C[C@H](Cc1ccc(O)c(O)c1)[C@@H](C)Cc1ccc(O)c(O)c1", "system": "PBS", "setting": "24 h, room temperature", "measurement": "solubility", "value": "50 µg/mL"}
{"SMILES": "COc1ccc(OC[C@H]2c3cccn3CC(=O)N2Cc2cccc(F)c2)cc1", "tested on": "Glutamate receptor ionotropic, NMDA 2C, with GluN1 (Rattus norvegicus, UniProt Q00961)", "assay": "ion current, whole-cell patch clamp", "system": "HEK293T cells, transfected", "setting": "10 µM, holding -70 mV, with: 1 mM glutamate for 10 ms plus 100 µM glycine", "measurement": "peak current", "value": "-181 ± 126 pA"}
{"SMILES": "CCN1CCN(Cc2ccc(NC(=O)c3ccc(C)c(/C=C/c4cnc5[nH]ccc5c4OC)c3)cc2C(F)(F)F)CC1", "tested on": "Serine/threonine-protein kinase B-raf (BRAF, Homo sapiens, UniProt P15056, K601E)", "assay": "inhibitor, cell-based kinome screen", "setting": "5 µM", "scale": "baseline: vehicle control", "measurement": "log2 fold change", "value": -0.623}
{"SMILES": "CCCN1CCN(c2ccc3c(c2)C2CC3CCN2C(=O)OCc2ccccc2)CC1 (stereo not drawn)", "tested on": "D(3) dopamine receptor (DRD3, Homo sapiens, UniProt P35462)", "assay": "binding, radioligand binding", "measurement": "Ki", "value": "4.43 µM"}
{"SMILES": "CC#C/C(=N\\OC[C@H]1COCCN1)c1ccc2ncnc(Nc3ccc(OCc4cccc(F)c4)c(Cl)c3)c2c1", "tested on": "cAMP-dependent protein kinase catalytic subunit alpha (PRKACA, Homo sapiens, UniProt P17612)", "assay": "kinase activity", "setting": "10 µM", "measurement": "inhibition", "value": "-7.2%"}
{"SMILES": "CCN(CC)C(=O)Oc1ccc(C(=O)Nc2cccc3cc[nH]c23)cc1", "tested on": "Glutamate receptor ionotropic, NMDA 2D, with GluN1 (Rattus norvegicus, UniProt Q62645)", "measurement": "association rate constant", "value": "160000 ± 10000 M⁻¹ s⁻¹"}
{"SMILES": "Cc1ccc(-c2nsc(=O)o2)s1", "tested on": "Proteasome subunit beta type-7 (PSMB7, Homo sapiens, UniProt Q99436)", "assay": "inactivation", "system": "human PA28-activated proteasome", "measurement": "kobs/[I]", "value": "0.11 M⁻¹ s⁻¹"}
{"note": "Excerpt of the above:"}
{"SMILES": "Cc1ccc(S(=O)(=O)N(C)CC(=O)N(Cc2ccc(C3CCCCC3)cc2)c2ccc(C(=O)O)c(O)c2)cc1", "tested on": "Signal transducer and activator of transcription 3 (STAT3, Homo sapiens, UniProt P40763)", "assay": "co-immunoprecipitation", "system": "PANC-1 and MDA-MB-231", "setting": "concentration not given", "measurement": "EGFR association", "value": "decreased"}
